Experimental data pooled from the literature.
Compare with care: the assays were run in different laboratories. Values joined by “and” are separate records of one study, mostly repeats; a detail may differ. ± marks the error that the study gave.
UniProt Q8R2Y0, sequence (whole entry, looked up): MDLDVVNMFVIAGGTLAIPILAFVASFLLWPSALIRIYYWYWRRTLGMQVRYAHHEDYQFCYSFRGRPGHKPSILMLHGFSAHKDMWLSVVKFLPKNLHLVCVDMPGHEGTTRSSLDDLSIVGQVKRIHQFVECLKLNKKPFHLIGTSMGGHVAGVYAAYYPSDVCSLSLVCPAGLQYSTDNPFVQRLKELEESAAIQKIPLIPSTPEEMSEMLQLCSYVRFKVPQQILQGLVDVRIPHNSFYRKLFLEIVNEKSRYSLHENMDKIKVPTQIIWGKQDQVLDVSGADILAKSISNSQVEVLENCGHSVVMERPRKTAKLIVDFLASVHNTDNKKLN
UniProt Q15139, sequence (whole entry, looked up): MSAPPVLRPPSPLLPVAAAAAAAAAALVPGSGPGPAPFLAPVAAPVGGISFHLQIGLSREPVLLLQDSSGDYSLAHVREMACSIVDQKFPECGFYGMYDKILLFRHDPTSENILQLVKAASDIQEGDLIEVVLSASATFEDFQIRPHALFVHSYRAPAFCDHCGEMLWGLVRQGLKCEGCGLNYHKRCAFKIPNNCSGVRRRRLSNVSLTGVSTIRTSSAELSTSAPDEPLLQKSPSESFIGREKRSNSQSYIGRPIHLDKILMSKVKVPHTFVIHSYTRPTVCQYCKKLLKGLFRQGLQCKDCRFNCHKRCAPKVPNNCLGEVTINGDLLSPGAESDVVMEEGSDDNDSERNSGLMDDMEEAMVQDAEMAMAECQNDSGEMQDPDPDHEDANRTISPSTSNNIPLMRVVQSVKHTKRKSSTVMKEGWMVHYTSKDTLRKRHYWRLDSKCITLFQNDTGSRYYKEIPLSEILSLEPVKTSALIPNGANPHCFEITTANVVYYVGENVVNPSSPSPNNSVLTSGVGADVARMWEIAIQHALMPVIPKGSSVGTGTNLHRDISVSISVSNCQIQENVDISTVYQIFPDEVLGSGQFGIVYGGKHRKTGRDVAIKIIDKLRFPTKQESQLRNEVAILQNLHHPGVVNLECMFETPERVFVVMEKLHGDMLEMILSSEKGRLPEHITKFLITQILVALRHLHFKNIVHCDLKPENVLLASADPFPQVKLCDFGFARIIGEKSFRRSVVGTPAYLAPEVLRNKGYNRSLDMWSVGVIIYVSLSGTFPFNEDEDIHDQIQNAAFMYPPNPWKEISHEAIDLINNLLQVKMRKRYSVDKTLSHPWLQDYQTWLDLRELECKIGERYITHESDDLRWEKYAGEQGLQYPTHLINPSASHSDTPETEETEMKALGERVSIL
UniProt P34972, sequence (whole entry, looked up): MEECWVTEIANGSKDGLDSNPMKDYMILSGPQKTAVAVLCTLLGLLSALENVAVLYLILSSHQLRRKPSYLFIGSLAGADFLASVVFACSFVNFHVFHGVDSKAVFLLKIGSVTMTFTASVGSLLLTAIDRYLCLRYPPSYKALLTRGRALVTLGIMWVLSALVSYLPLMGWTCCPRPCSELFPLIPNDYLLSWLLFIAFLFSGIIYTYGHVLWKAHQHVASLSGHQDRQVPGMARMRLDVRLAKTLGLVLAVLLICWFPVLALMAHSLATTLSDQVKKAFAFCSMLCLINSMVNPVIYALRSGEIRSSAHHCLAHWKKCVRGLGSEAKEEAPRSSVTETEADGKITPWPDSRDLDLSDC
UniProt P0A988, sequence (whole entry, unmodified, looked up): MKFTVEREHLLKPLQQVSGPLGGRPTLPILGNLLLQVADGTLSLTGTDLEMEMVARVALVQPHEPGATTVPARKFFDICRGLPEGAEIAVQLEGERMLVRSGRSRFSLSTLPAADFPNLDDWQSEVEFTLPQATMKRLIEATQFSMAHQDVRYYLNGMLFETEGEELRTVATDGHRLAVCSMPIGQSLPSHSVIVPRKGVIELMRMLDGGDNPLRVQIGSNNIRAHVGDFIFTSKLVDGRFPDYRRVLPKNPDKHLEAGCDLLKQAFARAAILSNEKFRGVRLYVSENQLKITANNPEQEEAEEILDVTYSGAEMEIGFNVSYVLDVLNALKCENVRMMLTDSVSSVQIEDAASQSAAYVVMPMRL
UniProt P54750, sequence (whole entry, looked up): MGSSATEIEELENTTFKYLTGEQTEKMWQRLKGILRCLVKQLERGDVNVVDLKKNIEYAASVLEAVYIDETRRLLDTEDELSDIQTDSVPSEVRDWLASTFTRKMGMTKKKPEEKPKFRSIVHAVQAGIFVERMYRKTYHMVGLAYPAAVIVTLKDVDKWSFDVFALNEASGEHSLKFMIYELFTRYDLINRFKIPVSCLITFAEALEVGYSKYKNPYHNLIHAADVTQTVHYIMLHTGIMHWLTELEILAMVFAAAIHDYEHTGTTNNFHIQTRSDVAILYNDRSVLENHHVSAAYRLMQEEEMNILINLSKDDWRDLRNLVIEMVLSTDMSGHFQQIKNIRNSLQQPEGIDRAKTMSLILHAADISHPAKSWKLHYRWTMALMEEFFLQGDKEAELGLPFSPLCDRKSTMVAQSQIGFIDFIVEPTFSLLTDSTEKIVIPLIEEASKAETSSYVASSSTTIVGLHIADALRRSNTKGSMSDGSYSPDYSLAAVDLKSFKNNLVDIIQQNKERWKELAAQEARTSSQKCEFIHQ
UniProt P53779, sequence (whole entry, looked up): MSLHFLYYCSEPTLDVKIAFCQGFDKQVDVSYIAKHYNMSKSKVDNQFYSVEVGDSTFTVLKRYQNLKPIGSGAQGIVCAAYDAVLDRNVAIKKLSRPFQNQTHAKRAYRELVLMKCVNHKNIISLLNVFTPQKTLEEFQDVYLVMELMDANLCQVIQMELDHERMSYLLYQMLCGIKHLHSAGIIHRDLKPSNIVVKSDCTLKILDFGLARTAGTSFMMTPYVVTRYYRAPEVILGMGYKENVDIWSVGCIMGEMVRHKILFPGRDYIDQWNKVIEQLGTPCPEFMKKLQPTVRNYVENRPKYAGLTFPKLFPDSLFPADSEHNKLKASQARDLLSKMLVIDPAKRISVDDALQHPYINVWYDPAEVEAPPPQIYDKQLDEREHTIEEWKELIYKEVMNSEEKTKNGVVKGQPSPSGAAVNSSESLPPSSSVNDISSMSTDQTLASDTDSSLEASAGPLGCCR
UniProt Q13882, sequence (whole entry, looked up): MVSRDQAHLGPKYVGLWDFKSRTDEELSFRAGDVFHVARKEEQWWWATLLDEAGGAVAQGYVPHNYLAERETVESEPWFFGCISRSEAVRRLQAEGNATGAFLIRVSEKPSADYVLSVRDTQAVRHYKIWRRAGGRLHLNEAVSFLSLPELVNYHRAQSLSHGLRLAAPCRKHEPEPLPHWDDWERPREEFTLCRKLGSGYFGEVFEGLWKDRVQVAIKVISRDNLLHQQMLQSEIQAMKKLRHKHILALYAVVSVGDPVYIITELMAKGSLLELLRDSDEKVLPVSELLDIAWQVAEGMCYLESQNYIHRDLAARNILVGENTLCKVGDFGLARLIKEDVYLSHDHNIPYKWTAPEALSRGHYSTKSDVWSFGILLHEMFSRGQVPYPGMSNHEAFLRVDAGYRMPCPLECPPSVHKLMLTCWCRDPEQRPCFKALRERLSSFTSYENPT
UniProt P15066, sequence (whole entry, unmodified, looked up): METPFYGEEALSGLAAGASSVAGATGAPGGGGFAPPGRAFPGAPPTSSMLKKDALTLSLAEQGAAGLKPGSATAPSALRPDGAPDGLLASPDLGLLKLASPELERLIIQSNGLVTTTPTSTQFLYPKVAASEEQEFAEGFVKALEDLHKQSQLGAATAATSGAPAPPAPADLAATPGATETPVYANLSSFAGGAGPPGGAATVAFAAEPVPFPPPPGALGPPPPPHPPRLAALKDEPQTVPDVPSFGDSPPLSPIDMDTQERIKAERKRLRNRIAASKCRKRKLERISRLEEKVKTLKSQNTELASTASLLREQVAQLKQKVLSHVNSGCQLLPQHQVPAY
UniProt Q9UQB9, sequence (whole entry, looked up): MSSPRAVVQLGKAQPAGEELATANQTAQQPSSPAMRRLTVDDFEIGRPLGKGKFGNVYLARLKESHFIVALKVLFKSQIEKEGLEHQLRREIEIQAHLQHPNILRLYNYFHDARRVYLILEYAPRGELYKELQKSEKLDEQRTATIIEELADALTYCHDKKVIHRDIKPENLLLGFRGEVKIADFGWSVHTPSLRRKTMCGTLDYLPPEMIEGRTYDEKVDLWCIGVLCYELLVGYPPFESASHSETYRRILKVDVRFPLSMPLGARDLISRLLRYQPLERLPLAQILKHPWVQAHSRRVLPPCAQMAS
UniProt P13346, sequence (whole entry, unmodified, looked up): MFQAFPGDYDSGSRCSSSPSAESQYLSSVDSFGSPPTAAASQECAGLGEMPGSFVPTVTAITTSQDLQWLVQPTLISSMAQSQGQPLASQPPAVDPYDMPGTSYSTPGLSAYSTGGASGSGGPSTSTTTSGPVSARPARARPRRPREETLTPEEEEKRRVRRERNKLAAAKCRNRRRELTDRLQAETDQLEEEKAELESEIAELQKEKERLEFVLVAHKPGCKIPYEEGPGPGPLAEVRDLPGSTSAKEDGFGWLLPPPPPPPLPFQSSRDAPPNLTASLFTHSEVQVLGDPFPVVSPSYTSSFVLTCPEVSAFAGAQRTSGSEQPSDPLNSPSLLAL

| SMILES | target or system | assay | system | setting | scale | endpoint | value |
| --- | --- | --- | --- | --- | --- | --- | --- |
| CS(C)(=O)=Nc1ccc(-c2ccc(-c3nc4cc(O[C@@H]5CO[C@H]6[C@@H]5OC[C@H]6O)[nH]c4cc3F)cc2)cc1 | androgen receptor human | binding |  | 10 µM |  | inhibition | -14% |
| CN(C)[C@H]1C[C@@]23CC[C@@]4(O2)C(=CC[C@]2(C)[C@@H](c5ccc6ccncc6c5)CC[C@H]24)C=C3[C@@H](O)[C@@H]1O | Diacylglycerol kinase theta (DGKQ, Homo sapiens, UniProt P52824) | ATP probe labelling, inhibitor, KiNativ profiling |  | 0.1 µM |  | inhibition | 16.5% |
| CCOC(=O)[C@](CC)(CCCSCCOCCOCCNC(=O)c1ccc(C(=O)[O-])c(C2=C3C=CC(=[N+](C)C)C=C3[Si](C)(C)c3cc(N(C)C)ccc32)c1)NC(=O)c1ccc(C2CC2)c(Cc2ccc(F)cc2)n1 | CNR2 (Homo sapiens, UniProt P34972) | radioligand binding |  |  | reference: CB1 over CB2 (human) | Ki ratio | 2 |
| [CH3][Ti+2][O]C(=O)c1ccc([S][Au][PH](c2ccccc2)(c2ccccc2)c2ccccc2)cc1.c1cc[cH-]c1.c1cc[cH-]c1 | PRKD1 (Homo sapiens, UniProt Q15139) | kinase activity |  | 1 µM, together with: ATP 10 µM |  | remaining activity | 81.5% |
| CCCCCC=CC=C1C(=O)C=CC1CC=CCCCC(=O)O (stereo not shown) | 60 kDa heat shock protein, mitochondrial (Homo sapiens, UniProt P10809) | competitive isoTOP-ABPP, refers to: HSPD1 cysteine peptide | proteome, soluble, MDA-MB-231 | 100 µM, together with: iodoacetamide probe | reference: DMSO over compound-treated, higher = stronger cysteine blockade | isoTOP-ABPP competition ratio | 3.7 |
| C#CCCCCOc1ccc2c(c1)CCCN2C(=O)CCl | PDE1A (Homo sapiens, UniProt P54750) | mass spectrometry profiling | H460 cell lysate | 100 µM over 10 µM, UniProt P54750 | reference: high over low concentration | reactivity ratio | 1.02 |
| COc1ccccc1-c1n[nH]c2nc(NC3CCN(C(=O)Cc4ccc(F)cc4F)CC3)ncc12 |  | bead binding, competition bead pull-down, refers to: LINJ.25.1790 | Leishmania donovani axenic amastigote extract | 10 µM | reference: vehicle | relative abundance | 0.63 |
| COc1ccc(C(=O)CCl)c2c1C(=O)CO2 | Fosb/Jund, ΔFosB bZIP domain (Mus musculus, UniProt P13346+P15066) | intact mass LC-MS, refers to: JUND adduct, HCl lost |  | concentration not given | reference: total JUND species | relative abundance | 24.5% |
| CC(C)CC(O)(CC(C)C)c1cn(C(=O)N2CCCC2)nn1 | Abhd6 (Mus musculus, UniProt Q8R2Y0) | probe labelling, inhibitor, competitive ABPP-SILAC | mouse T cells | concentration not given, 4 h, single peptide | reference: treated over DMSO cells, lower = stronger inhibition | SILAC activity ratio | 0.9 and 1.04 and 0.93 and 0.95 and 0.85 and 0.91 |
| Cc1cc(C(=O)Nc2nc3cccc(C)c3n2[C@H]2CCCCN(C(=O)/C=C/CN(C)C)C2)ccn1 | Trypanosoma brucei brucei |  | 2T1 wild type | 0.00343 µM |  | survival | 105% and 98.1% and 102% and 112% and 103% and 95% |
| CC(C)(C)C(=O)OCOP(=O)(OCOC(=O)C(C)(C)C)C1CCCN(O)C1=O (stereo not shown) | Malme-3M |  |  |  |  | TGI | 5.81 µM |
| Nc1ccc(/C=C/C(=O)N2CCc3c(oc4c(-c5ccc(F)cc5)cc(-c5ccc(C(=O)N6CCC(F)(F)CC6)cn5)cc34)C2)cn1 | MAPK10 (Homo sapiens, UniProt P53779) | binding, competition with immobilised ligand |  | 1 µM |  | remaining binding | 91% |
| O=C1NC2(CC2)COc2ncc(F)cc2[C@H]2COCCN2c2ccn3ncc1c3n2 |  |  | Sprague-Dawley rat, female, serum | oral, 2.5 mg/kg/day, end of treatment, 4-week subacute toxicity |  | serum sodium | 145 ± 2 mmol/L |
| Cc1c(/N=N/c2ccccc2)cccc1[B-](F)(F)F.[K+] | Chymotrypsinogen A (Bos taurus, UniProt P00766) | enzyme activity, inhibitor |  | together with: Suc-AAPF-AMC | reference: Ki cis over Ki trans | switching factor | 2.6 ± 0.5 |
| CCN(N=Cc1cnc2ccc(Br)cn12)S(=O)(=O)c1cc([N+](=O)[O-])ccc1C | PIK3CA (Homo sapiens, UniProt P42336) | Kinase-Glo luminescence |  |  | reference: wild type | IC50 fold change | 1 |
| O=C1NC(=O)c2c1c1cc(F)c[n+]3c1c1c2c2cc(O)ccc2[n]1[Ru-4]312([N]=C=S)[S+]3CC[S+]1CC[S+]2CC3 (stereo not shown) | PTK6 (Homo sapiens, UniProt Q13882) | enzyme activity |  | 100 nM, human enzyme, together with: 10 µM ATP | reference: untreated | remaining activity | 110% |
| CC(=O)N[C@@H](CCC(N)=O)C(=O)N[C@@H](CC1CCCCC1)C(=O)N[C@@H](CNC(=O)CCl)C(=O)N[C@@H](CC(C)C)C(=O)N[C@@H](Cc1ccccc1)C(=O)O | Beta sliding clamp (Escherichia coli, UniProt P0A988) | binding, isothermal titration calorimetry |  | pH 7.4, 22 °C |  | ΔH | -10.9 kcal/mol |
| COc1ccccc1-c1n[nH]c2nc(N[C@H]3CC[C@H](NS(=O)(=O)CC(C)C)CC3)ncc12 |  | bead binding, competition bead pull-down, refers to: LINJ.32.0890 | Leishmania donovani extract | 10 µM | reference: vehicle | relative abundance | 0.87 |
| CC(C)[C@H]1NC(=O)C[C@H]2/C=C/CCSSC[C@@H](NC1=O)C(=O)N[C@H](Cc1cccc3ccccc13)C(=O)NCC(=O)O2 | Aurora kinase C (AURKC, Homo sapiens, UniProt Q9UQB9) | enzyme activity, inhibitor |  | 10 µM |  | inhibition | -4.4% |

Repeated from above:
| SMILES | target or system | assay | system | setting | scale | endpoint | value |
| --- | --- | --- | --- | --- | --- | --- | --- |
| CC(C)CC(O)(CC(C)C)c1cn(C(=O)N2CCCC2)nn1 | Abhd6 (Mus musculus, UniProt Q8R2Y0) | probe labelling, inhibitor, competitive ABPP-SILAC | mouse T cells | concentration not given, 4 h, single peptide | reference: treated over DMSO cells, lower = stronger inhibition | SILAC activity ratio | 0.9 and 1.04 and 0.93 and 0.95 and 0.85 and 0.91 |
| CCCCCC=CC=C1C(=O)C=CC1CC=CCCCC(=O)O (stereo not shown) | 60 kDa heat shock protein, mitochondrial (Homo sapiens, UniProt P10809) | competitive isoTOP-ABPP, refers to: HSPD1 cysteine peptide | proteome, soluble, MDA-MB-231 | 100 µM, together with: iodoacetamide probe | reference: DMSO over compound-treated, higher = stronger cysteine blockade | isoTOP-ABPP competition ratio | 3.7 |
| Cc1c(/N=N/c2ccccc2)cccc1[B-](F)(F)F.[K+] | Chymotrypsinogen A (Bos taurus, UniProt P00766) | enzyme activity, inhibitor |  | together with: Suc-AAPF-AMC | reference: Ki cis over Ki trans | switching factor | 2.6 ± 0.5 |
